{"data": "Measurements gathered from unrelated publications", "note": "Numbered parts are unrelated; each lists some results of a single study. Positions count from the first letter of the parent shown."}
{"data": "Study 1", "target": "ABI1, truncated, D143A, DHFR fusion (Arabidopsis thaliana)", "method": "DHFR PCA, deep sequencing", "sample": "yeast", "notes": "methotrexate growth selection, single substitutions", "with": "(+)-ABA 58 µM", "baseline": "wild-type fitted maximum", "direction": "higher = stronger binding", "starting sequence": "PYL1, truncated, DHFR fusion (Arabidopsis thaliana); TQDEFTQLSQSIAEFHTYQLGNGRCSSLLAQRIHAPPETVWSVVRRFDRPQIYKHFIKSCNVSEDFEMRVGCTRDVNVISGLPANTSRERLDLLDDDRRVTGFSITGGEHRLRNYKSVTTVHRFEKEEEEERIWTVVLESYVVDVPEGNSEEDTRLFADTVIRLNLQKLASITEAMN"}
{"Variant": "T73K", "relative binding score [%]": 71.3}
{"Variant": "Y141D", "relative binding score [%]": 0.57}
{"Variant": "S87T", "relative binding score [%]": 48.7}
{"Variant": "D92Q", "relative binding score [%]": 23.8}
{"Variant": "R123Y", "relative binding score [%]": 85.1}
{"Variant": "V136K", "relative binding score [%]": 4.12}
{"Variant": "S87C", "relative binding score [%]": 42.9}
{"Variant": "Q10D", "relative binding score [%]": 96}
{"Variant": "G21T", "relative binding score [%]": 88.8}
{"Variant": "C25F", "relative binding score [%]": 46.4}
{"Variant": "C60F", "relative binding score [%]": 6.64}
{"Variant": "G21F", "relative binding score [%]": 74.7}
{"Variant": "E152A", "relative binding score [%]": 82.7}
{"Variant": "Q31W", "relative binding score [%]": 49}
{"Variant": "G102T", "relative binding score [%]": 5.7}
{"Variant": "N22S", "relative binding score [%]": 93.1}
{"data": "Study 2", "target": "CCND1, cyclin fold, Cln2 fusion (human)", "method": "yeast growth competition, sequencing", "sample": "yeast", "notes": "strong parent motif", "baseline": "not given", "direction": "higher = stronger binding", "starting sequence": "PKN2 docking peptide (human); VSAVQKLDFSDTM"}
{"Variant": "VSAVQKLDFSGTM [D11G]", "normalised enrichment score": 2.41}
{"Variant": "ASAVQKLDFSDTM [V1A]", "normalised enrichment score": 1.64}
{"Variant": "VSAVQKLDFSDTP [M13P]", "normalised enrichment score": 2}
{"Variant": "VSAVQKYDFSDTM [L7Y]", "normalised enrichment score": 0.298}
{"Variant": "VSAVQKLYFSDTM [D8Y]", "normalised enrichment score": 1.22}
{"Variant": "VSCVQKLDFSDTM [A3C]", "normalised enrichment score": 1.48}
{"Variant": "VSAVQELDFSDTM [K6E]", "normalised enrichment score": 0.549}
{"Variant": "VSAVQKHDFSDTM [L7H]", "normalised enrichment score": 0.409}
{"Variant": "VTAVQKLDFSDTM [S2T]", "normalised enrichment score": 1.92}
{"Variant": "VSIVQKLDFSDTM [A3I]", "normalised enrichment score": 1.07}
{"Variant": "VSAVQKLDFSDTC [M13C]", "normalised enrichment score": 1.83}
{"Variant": "VSAFQKLDFSDTM [V4F]", "normalised enrichment score": 1.44}
{"Variant": "VSRVQKLDFSDTM [A3R]", "normalised enrichment score": 0.423}
{"Variant": "VSAVQKLDFSDTN [M13N]", "normalised enrichment score": 2.2}
{"Variant": "VSAVQKLCFSDTM [D8C]", "normalised enrichment score": 0.726}
{"Variant": "VSAVQKLDFSDTW [M13W]", "normalised enrichment score": 2.34}
{"data": "Study 3", "target": "Ras GTPase-activating protein-binding protein 1, RRM domain (G3BP1, Homo sapiens, UniProt Q13283)", "method": "RNA Bind-n-Seq", "form": "RNA", "sample": "in vitro", "concentration": "1 µM", "notes": "whole 134-nt RNA, ends assumed", "with": "150 mM KCl", "baseline": "input library", "direction": "higher = stronger binding", "sequence of UniProt Q13283 (whole entry, looked up)": "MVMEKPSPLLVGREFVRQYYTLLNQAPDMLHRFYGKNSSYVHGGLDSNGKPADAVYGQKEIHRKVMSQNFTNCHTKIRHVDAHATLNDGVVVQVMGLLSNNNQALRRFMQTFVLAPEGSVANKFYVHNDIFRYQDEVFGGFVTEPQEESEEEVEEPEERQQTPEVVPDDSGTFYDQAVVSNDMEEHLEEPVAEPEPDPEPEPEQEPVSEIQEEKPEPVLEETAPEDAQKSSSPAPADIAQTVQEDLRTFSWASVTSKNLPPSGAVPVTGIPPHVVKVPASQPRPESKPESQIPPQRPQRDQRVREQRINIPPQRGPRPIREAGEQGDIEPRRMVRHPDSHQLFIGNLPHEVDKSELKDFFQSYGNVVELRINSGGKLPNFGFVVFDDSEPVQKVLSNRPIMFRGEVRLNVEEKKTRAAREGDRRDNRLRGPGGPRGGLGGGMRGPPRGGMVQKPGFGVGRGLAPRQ"}
{"Strand": "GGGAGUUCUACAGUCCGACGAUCUCCUCAAGUCCUGUGCUACACAUCGUAUGUACCGAAUCGGAAAGGAGGAGGAAAGUAUUAUGUUACGCCGUUCGGAUCUGCACUUCCAGCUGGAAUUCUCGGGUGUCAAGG", "log2 enrichment": -0.261}
{"Strand": "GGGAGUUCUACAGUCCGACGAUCGUCCUGUGCUACACAUCGUAUGUACCGAAUCGGGGUUUUGGGUUUUGGGGUUUUGGGGAAAGUAUUAUGUUACGCCGUUCGGAUCUGCACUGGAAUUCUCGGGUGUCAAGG", "log2 enrichment": 0.325}
{"Strand": "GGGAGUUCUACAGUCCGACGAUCUCAAGUCCUGUGCUACACAUCGUAUGUACCGAAUCGGGUUUGGUUUGGGGUUUGGAAAGUAUUAUGUUACGCCGUUCGGAUCUGCACUUCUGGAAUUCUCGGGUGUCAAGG", "log2 enrichment": -0.352}
{"Strand": "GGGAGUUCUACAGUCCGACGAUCACCAUGCAGGUGGGCAUCUUUGGGAACUGGGGCAAGGGGGGGAUAGGGAGGGGGGUAACACUUUGGGAACAGGUGGUCCCAGGUCGUUUCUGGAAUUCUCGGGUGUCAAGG", "log2 enrichment": -0.621}
{"Strand": "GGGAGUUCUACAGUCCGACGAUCUCAAGUCCUGUGCUACACAUCGUAUGUACCGAAUCGGUGGUUUGGUUUUUUUGGAAAGUAUUAUGUUACGCCGUUCGGAUCUGCACUUCCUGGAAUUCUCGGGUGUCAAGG", "log2 enrichment": -0.295}
{"Strand": "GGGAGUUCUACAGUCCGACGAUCACCAUGCAGGUGGGCAUCUUUGGGAAGUGGGAAAAGGGGGGGAUAGGGAGGGGGGUAACACUUUGGGAACAGGUGGUCCCAGGUCGUUUCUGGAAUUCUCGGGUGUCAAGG", "log2 enrichment": -0.371}
{"Strand": "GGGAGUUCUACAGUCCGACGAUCUCAAGUCCUGUGCUACACAUCGUAUGUACCGAAUCGGGAAAAAGGGUGGGAGGGAAAGUAUUAUGUUACGCCGUUCGGAUCUGCACUUCCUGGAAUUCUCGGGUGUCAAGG", "log2 enrichment": 0.645}
{"Strand": "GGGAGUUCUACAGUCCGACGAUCAAGUCCUGUGCUACACAUCGUAUGUACCGAAUCGGUUUUGGGGUUUUGGGGUUUUGGAAAGUAUUAUGUUACGCCGUUCGGAUCUGCACUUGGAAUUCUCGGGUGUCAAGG", "log2 enrichment": -0.133}
{"Strand": "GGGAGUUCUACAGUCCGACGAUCUCAAGUCCUGUGCUACACAUCGUAUGUACCGAAUCGGAAGGGGAAGGGGAAGGGAAAGUAUUAUGUUACGCCGUUCGGAUCUGCACUUCCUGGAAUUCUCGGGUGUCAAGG", "log2 enrichment": 0.758}
{"data": "Study 4", "target": "Centromere-binding protein 1, full length, N-terminal tag (CBF1, Saccharomyces cerevisiae, UniProt P17106, residues 1-351)", "method": "protein-binding microarray", "form": "double-stranded DNA, one strand shown", "sample": "in vitro", "concentration": "0.8 µM", "notes": "whole 60-bp probe, no competitor", "direction": "higher = stronger binding", "sequence of UniProt P17106 (whole entry, looked up)": "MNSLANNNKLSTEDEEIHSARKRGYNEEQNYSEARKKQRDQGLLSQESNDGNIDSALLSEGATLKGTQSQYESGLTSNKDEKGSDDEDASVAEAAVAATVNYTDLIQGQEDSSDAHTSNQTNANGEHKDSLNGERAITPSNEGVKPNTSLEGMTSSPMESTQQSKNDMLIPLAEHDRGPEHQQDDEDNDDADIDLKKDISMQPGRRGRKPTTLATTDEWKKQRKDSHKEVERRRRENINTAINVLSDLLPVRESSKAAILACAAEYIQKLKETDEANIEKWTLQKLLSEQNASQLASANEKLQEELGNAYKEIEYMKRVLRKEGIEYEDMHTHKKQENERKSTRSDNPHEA"}
{"Strand": "CTACTACCACAAATGCACGTTTCGCGATTACTGTTCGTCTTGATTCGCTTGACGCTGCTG", "fluorescence intensity [a.u.]": 608}
{"Strand": "TGTACGAAGCTATTGATCATTCCTATAGTAGTTAGGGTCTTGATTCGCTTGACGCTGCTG", "fluorescence intensity [a.u.]": 528}
{"Strand": "GAATTTGATGGCCGTCACATGGTACGCCACTAATAGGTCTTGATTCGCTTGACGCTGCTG", "fluorescence intensity [a.u.]": 2830}
{"Strand": "GAATATGAGTACCGTCACGTTTCCTGTTAAAGATAGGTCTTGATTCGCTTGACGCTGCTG", "fluorescence intensity [a.u.]": 1730}
{"Strand": "GAAAGTAGTTTTCAGCGCGTGGTTAAGCTATTTTAGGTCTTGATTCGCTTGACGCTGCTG", "fluorescence intensity [a.u.]": 560}
{"Strand": "GAAGGAGCAGTGATGACCGTGACAGCTGAAATATAGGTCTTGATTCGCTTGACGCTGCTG", "fluorescence intensity [a.u.]": 680}
{"Strand": "GAATCGACTAGTATTCACGTTACTAGTATATTCTAGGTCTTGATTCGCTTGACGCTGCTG", "fluorescence intensity [a.u.]": 910}
{"Strand": "TGTACGAAGCTATACTTCGTGCATATAGTAGTTAGGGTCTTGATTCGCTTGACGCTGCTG", "fluorescence intensity [a.u.]": 492}
{"Strand": "CTAATAAGAAGGACGAGCGTGGTGGAGGAAAGGTTCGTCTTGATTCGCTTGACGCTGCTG", "fluorescence intensity [a.u.]": 543}
{"Strand": "GAAAAAGTGAGTAAGCATGTGATGGTACCTTCATAGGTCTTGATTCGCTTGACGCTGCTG", "fluorescence intensity [a.u.]": 1100}
{"Strand": "CTAAAGTGCAAAAGTTGCGTGAATCAGAAAGTTTTCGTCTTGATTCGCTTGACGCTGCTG", "fluorescence intensity [a.u.]": 533}
{"Strand": "GAACTTGAAATGGACTATGTCACCATTAGATCCTAGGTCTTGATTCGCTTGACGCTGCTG", "fluorescence intensity [a.u.]": 520}
{"Strand": "CTATAAACAATTCAACTGACATTAGATACATCATTCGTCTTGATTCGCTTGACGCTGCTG", "fluorescence intensity [a.u.]": 544}
{"Strand": "CCTAACTACTATAGTCACATCTTATAGCTTCGTACAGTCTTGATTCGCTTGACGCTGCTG", "fluorescence intensity [a.u.]": 540}
{"Strand": "CTAGAAATCTTAGGACATCAGAAATGTACGTAGTTCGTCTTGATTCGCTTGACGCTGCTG", "fluorescence intensity [a.u.]": 475}
{"Strand": "TGTACGAAGCTATGTGATACAAATATAGTAGTTAGGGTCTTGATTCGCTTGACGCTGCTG", "fluorescence intensity [a.u.]": 583}
{"Strand": "CTATTTTCATTCCGTGGTGCGTGATCTGATGAGTTCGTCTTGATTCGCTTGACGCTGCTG", "fluorescence intensity [a.u.]": 1460}
{"Strand": "TGTACGAAGCTATTACATGTGTCTATAGTAGTTAGGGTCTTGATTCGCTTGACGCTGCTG", "fluorescence intensity [a.u.]": 583}
{"Strand": "CTATACGGTAATTGCCTCACCTGTGGTGACTAGTTCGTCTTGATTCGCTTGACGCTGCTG", "fluorescence intensity [a.u.]": 498}
{"data": "Study 5", "target": "CREB3L2, bZIP domain (human)", "method": "DHFR protein complementation", "sample": "yeast", "notes": "single substitutions, most at no-binding floor", "baseline": "wild-type JUN-FOS pair", "direction": "higher = stronger binding", "starting sequence": "JUN, bZIP domain (human); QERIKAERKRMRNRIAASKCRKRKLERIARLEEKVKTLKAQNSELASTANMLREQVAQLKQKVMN; partner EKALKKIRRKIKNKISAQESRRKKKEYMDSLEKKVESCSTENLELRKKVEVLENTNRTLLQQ"}
{"Variant": "V56L", "binding fitness [natural log]": -1.31}
{"Variant": "A40H", "binding fitness [natural log]": -1.51}
{"Variant": "L38T", "binding fitness [natural log]": -1.52}
{"Variant": "E32H", "binding fitness [natural log]": -1.57}
{"Variant": "L31S", "binding fitness [natural log]": -1.57}
{"Variant": "L38R", "binding fitness [natural log]": -1.51}
{"Variant": "E32P", "binding fitness [natural log]": -1.53}
{"Variant": "L38G", "binding fitness [natural log]": -1.52}
{"Variant": "E44P", "binding fitness [natural log]": -1.5}
{"Variant": "T48L", "binding fitness [natural log]": -1.41}
{"Variant": "T37Q", "binding fitness [natural log]": -1.54}
{"Variant": "L52S", "binding fitness [natural log]": -1.49}
{"Variant": "K39V", "binding fitness [natural log]": -1.47}
{"Variant": "A57L", "binding fitness [natural log]": -1.54}
{"Variant": "L38W", "binding fitness [natural log]": -1.55}
{"Variant": "T37D", "binding fitness [natural log]": -1.41}
{"Variant": "K39I", "binding fitness [natural log]": -1.42}
{"Variant": "T48Y", "binding fitness [natural log]": -1.39}
{"Variant": "R30L", "binding fitness [natural log]": -1.46}
{"Variant": "S43E", "binding fitness [natural log]": -1.48}
{"Variant": "V56G", "binding fitness [natural log]": -1.49}
{"Variant": "S47V", "binding fitness [natural log]": -1.22}
{"Variant": "V56N", "binding fitness [natural log]": -1.42}
{"Variant": "R30K", "binding fitness [natural log]": -1.52}
{"Variant": "R53D", "binding fitness [natural log]": -1.48}
